{"data": "Measured values pooled from the literature", "cell line": "T47D", "note": "Protocols differ between the studies behind these lines."}
{"SMILES": "CC/C=C\\C/C=C\\C/C=C\\C/C=C\\C/C=C\\C/C=C\\CCC(=O)Nc1ccn(C2OC(CO)C(O)C2(F)F)c(=O)n1 (stereo not shown)", "assay": "cell growth or viability, SRB", "measurement": "GI50", "value": "0.0996 µM"}
{"SMILES": "CCCCCCCCn1c(-c2cccnc2)nc(-c2ccc(C)cc2)c1-c1ccc(C)cc1", "assay": "cell growth or viability, SRB", "setting": "48 h", "measurement": "IC50", "value": "97.2 µM"}
{"SMILES": "CC1=CCC23OC2(C)CCC2C(CN(C)C)C(=O)OC2C13.Cl (stereo not shown)", "assay": "cell growth or viability, SRB", "setting": "8.3 µM", "measurement": "inhibition", "value": "58.9%"}
{"SMILES": "CCN1CCN(Cc2ccc(C(=O)Nc3ccc(C)c(NCc4cnc5[nH]ccc5c4OC)c3)cc2C(F)(F)F)CC1", "assay": "cell growth or viability", "setting": "48 h", "measurement": "GI50", "value": "1.11 µM"}
{"SMILES": "COc1ccc(C2=Nn3c(NN=C4C(=O)N(Cc5ccccc5)c5ccc(Cl)cc54)nnc3SC2)cc1", "assay": "cell growth or viability, SRB", "setting": "10 µM", "measurement": "inhibition", "value": "29%"}
{"SMILES": "CC(=O)OC[C@H]1O[C@@H](Sc2sc(C(=O)c3ccc(Br)cc3)c(N)c2-c2nc3ccccc3s2)[C@H](OC(C)=O)[C@@H](OC(C)=O)[C@H]1OC(C)=O", "assay": "SRB", "setting": "10 µM, 48 h", "how to read": "baseline: untreated", "measurement": "growth", "value": "67.4%"}
{"SMILES": "COc1ccc(C=C2SC(N3N=C(c4cccs4)CC3c3ccc(F)cc3)=NC2=O)cc1 (stereo not shown)", "assay": "PI flow cytometry", "setting": "concentration not given, 24 h", "measurement": "cells in %S phase", "value": "29%"}
{"SMILES": "CCCn1c(-c2cccnc2)nc(-c2ccc(C)cc2)c1-c1ccc(C)cc1", "assay": "cell growth or viability, SRB", "setting": "24 h", "measurement": "IC50", "value": "> 100 µM"}
{"SMILES": "COc1ccc(C2=NN(C3=NC(=O)C(=Cc4ccc(O)cc4)S3)C(c3ccc(F)cc3)C2)cc1 (stereo not shown)", "assay": "annexin V-FITC/PI flow cytometry", "setting": "concentration not given", "measurement": "late apoptotic cells", "value": "27.2%"}
{"SMILES": "O=C1Nc2ccccc2/C1=N\\Nc1nnc2n1N=C(c1ccc(Cl)cc1)CS2", "assay": "cell growth or viability, SRB", "setting": "10 µM", "measurement": "inhibition", "value": "29%"}
{"SMILES": "CCCCCCCCCCn1c(-c2cccnc2)nc(-c2ccc(C)cc2)c1-c1ccc(C)cc1", "assay": "cell growth or viability, SRB", "setting": "24 h", "measurement": "IC50", "value": "> 100 µM"}
{"SMILES": "CC(=O)OC[C@H]1O[C@@H](Sc2sc(C(=O)c3ccc(C)cc3)c(N)c2-c2nc3ccccc3s2)[C@H](OC(C)=O)[C@@H](OC(C)=O)[C@H]1OC(C)=O", "assay": "SRB", "setting": "10 µM, 48 h", "how to read": "baseline: untreated", "measurement": "growth", "value": "56.2%"}
{"SMILES": "CCC(=C(c1ccc(Cl)cc1)c1ccc(OCCCN(C)C)cc1)c1ccc(OC)cc1", "assay": "cell growth or viability, SRB", "measurement": "GI50", "value": "3.75 µM"}
{"note": "Repeated from above:"}
{"SMILES": "CC/C=C\\C/C=C\\C/C=C\\C/C=C\\C/C=C\\C/C=C\\CCC(=O)Nc1ccn(C2OC(CO)C(O)C2(F)F)c(=O)n1 (stereo not shown)", "assay": "cell growth or viability, SRB", "measurement": "GI50", "value": "0.0996 µM"}
{"SMILES": "CCCCCCCCn1c(-c2cccnc2)nc(-c2ccc(C)cc2)c1-c1ccc(C)cc1", "assay": "cell growth or viability, SRB", "setting": "48 h", "measurement": "IC50", "value": "97.2 µM"}
